Measured values from different studies.
Compare with care: the assays were run in different laboratories.
Target: Peroxisome proliferator-activated receptor gamma (PPARG, Homo sapiens, UniProt P37231)
One construct used (P37231 1-505): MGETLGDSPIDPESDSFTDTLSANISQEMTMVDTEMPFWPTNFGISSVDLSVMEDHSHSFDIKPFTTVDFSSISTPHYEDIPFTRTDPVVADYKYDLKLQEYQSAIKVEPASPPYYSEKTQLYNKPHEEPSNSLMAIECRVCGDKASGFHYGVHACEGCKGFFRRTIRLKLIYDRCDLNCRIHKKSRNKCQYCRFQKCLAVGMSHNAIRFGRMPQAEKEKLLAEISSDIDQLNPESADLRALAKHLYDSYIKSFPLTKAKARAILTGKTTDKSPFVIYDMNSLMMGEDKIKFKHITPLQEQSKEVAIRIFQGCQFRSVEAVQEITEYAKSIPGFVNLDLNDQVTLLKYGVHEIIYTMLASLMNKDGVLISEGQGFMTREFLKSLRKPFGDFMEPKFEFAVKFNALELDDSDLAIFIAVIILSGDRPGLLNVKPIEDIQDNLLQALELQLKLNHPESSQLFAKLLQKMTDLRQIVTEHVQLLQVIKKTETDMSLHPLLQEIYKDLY

For `Cc1cc(N2CC[C@@](C#N)(C3(C)CC3)C2=O)cc(C(=O)NCc2cc(F)cc(-c3cnn(C)c3)c2)n1`, the IC50 was 8.4 µM (cell-free assay).
With `COc1cc2c(cc1OC)C(c1ccc(F)cc1F)N(CCCOc1ccc(CCC(=O)O)cc1)CC2` (centres unmarked) the Ki was 5.74 µM.
With `COC(=O)C(CCSC)NC(=O)/C=C/C=C/c1ccc(O)c(O)c1` (centres unmarked) the IC50 was 79.3 µM (ligand displacement, FP).
`C[C@H](CCC(=O)NCCOCCOCCOCCOCCOCCOCCOCCOCCOCCOCCOCCOCCOCCOCCOCCNC(=O)c1ccc2c(-c3ccc(C(=O)O)cc3)nn(C(=O)c3c(Cl)cccc3C(F)(F)F)c2c1)[C@H]1CC[C@H]2[C@@H]3CC=C4C[C@@H](O)CC[C@]4(C)[C@H]3CC[C@]12C` has an IC50 of > 100 µM (coactivator recruitment, antagonist, TR-FRET; together with: rosiglitazone 1 µM).
`COc1ccc(NC(=O)COc2ccc(/C=C/C(C)=N/O)cc2OC)cc1` has an IC50 of 5.97 µM (ligand displacement, TR-FRET).
`O=C(O)c1ccc(-c2nc(-c3cccc(C(F)(F)F)c3)cs2)cc1` — result for EC50: “no binding” (binding, TR-FRET).
The IC50 of `COc1cc(/C=C/C(C)=NO)ccc1OCC(=O)Nc1ccccc1Cl` (stereo in doubt) is reported as 13.3 µM (ligand displacement, TR-FRET).
With `COC(=O)C(C)NC(=O)/C=C/C=C/c1ccc2c(c1)OCO2` (centres unmarked) the IC50 was 2.43 µM (ligand displacement, FP).

For quick reference, copied from above:
The IC50 of `COc1cc(/C=C/C(C)=NO)ccc1OCC(=O)Nc1ccccc1Cl` (stereo in doubt) is reported as 13.3 µM (ligand displacement, TR-FRET).
